Results pooled from the literature.
Each numbered part is a random draw from the data of one study; scales do not carry over between parts. Changes are numbered by the printed parent chain.

Block 1 — target: CCNB1, cyclin fold, Cln2 fusion (human); method: yeast growth competition, sequencing; sample: yeast; notes: weak parent motif; relative to: not given; direction: higher = stronger binding
Starting sequence: SCAPER docking peptide (human); SNARRSLNFGGST
Change	normalised enrichment score
N8V	-0.113
N8C	0.0533
G10V	-0.826
N2G	0.904
A3K	0.0564
R5K	-0.246
R4S	-0.16
R5V	1.11
R4M	-0.283
A3H	0.384
F9A	0.131
S1W	1.36
S12R	-0.0417
G11L	-0.141
F9D	0.472
N2Y	0.26
R4T	0.351
S12I	0.221
R5A L7A	-0.11
S1F	1.31
S6P	0.591
A3C	0.376
N8H	0.552
R5F	0.56
S12W	0.158

Block 2 — method: universal PBM; form: double-stranded DNA, one strand shown; sample: in vitro; tested at: 600 nM; direction: higher = stronger binding
Target: Sal-like protein 4, full length isoform A (SALL4, Homo sapiens, UniProt Q9UJQ4, residues 1-1053)
Sequence of UniProt Q9UJQ4 (whole entry, looked up): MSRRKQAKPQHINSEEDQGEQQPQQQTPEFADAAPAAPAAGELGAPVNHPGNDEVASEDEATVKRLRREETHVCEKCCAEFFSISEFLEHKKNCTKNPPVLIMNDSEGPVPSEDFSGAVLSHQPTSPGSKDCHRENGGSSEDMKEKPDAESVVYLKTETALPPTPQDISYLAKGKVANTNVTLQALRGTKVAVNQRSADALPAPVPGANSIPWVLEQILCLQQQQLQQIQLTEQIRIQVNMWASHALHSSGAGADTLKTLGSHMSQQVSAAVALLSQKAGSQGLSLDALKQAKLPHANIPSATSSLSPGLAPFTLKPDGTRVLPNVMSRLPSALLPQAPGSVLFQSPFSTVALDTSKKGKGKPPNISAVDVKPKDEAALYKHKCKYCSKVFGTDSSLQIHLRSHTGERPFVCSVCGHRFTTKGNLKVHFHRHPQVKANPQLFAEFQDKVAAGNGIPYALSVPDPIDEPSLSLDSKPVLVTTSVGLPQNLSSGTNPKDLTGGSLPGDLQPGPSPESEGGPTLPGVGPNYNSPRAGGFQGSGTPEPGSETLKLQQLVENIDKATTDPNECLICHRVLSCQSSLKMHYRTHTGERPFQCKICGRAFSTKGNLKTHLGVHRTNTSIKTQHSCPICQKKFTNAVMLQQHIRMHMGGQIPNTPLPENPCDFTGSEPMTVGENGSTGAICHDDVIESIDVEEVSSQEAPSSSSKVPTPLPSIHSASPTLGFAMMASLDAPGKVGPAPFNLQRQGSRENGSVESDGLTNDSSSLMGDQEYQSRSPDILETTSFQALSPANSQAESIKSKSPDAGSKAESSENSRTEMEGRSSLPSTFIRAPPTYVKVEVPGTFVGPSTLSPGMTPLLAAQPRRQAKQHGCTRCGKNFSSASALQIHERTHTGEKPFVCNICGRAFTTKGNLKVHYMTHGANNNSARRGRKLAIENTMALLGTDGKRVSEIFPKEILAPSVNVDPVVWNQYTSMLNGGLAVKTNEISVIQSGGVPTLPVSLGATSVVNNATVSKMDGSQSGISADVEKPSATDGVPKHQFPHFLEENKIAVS
Notes: 8-mer, flanks averaged, mean of replicates
Strand	E-score
ATAGCGCC	-0.12
CAGGATCG	-0.242
AGATATGG	0.216
ATCATCAA	0.233
GACTTCCA	-0.163
CTATTACC	0.093
AGACGGCT	-0.292
AGTATTGA	0.233
AAATAGCG	0.193
CTCGCGCA	-0.0565
CTTCGGCA	-0.243
CGGAGCGA	-0.0315
CCAACCGG	-0.346
AGGTCAGG	-0.36
TCGTATCA	0.109
TCAAGGGA	-0.0678
ACGCGAAA	-0.014
TAGATTAA	0.277
ACATTGGT	0.0166

Block 3 — method: RNA Bind-n-Seq; form: RNA; sample: in vitro; tested at: not given; relative to: input RNA pool; direction: higher = stronger binding
Target: RING finger protein unkempt homolog, zinc fingers 1-6, GST-SBP tag (UNK, Homo sapiens, UniProt Q9C0B0, residues 30-357)
Sequence of UniProt Q9C0B0 (30-357, looked up): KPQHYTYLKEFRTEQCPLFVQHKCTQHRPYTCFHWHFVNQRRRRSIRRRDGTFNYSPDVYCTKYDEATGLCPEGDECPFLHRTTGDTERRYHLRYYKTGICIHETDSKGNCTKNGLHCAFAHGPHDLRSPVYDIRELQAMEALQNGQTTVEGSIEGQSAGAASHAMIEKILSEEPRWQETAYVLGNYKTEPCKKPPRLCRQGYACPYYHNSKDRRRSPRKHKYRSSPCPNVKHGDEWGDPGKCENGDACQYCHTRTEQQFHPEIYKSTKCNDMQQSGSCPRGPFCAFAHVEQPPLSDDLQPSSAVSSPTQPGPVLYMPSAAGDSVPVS
Notes: RNA with constant flanks, human and mouse sites, ends assumed
All sequences stand within: GGGAGUUCUACAGUCCGACGAUC … CAACAGAGGAUUGAGCAUCA
Strand	bound/input enrichment
UCCACACAGAAAAGGGCUAACUAUACAGCAGAGCAGGAAUCUCUGAAUAUCCCACUAAACGUUCUCUUCCUAUUUGUCAGUUGUAUUUUUCCUUAGGAUAAAGGUUUUAUCCACUAUAUU	0.211 ratio
CCAUUCCAAAAUAAACAACUGAAACCAAAACAGCCUCCCAAACCACCACAGAUUCACUAUUGUGAUGUUUGUAAGAUCAGCUGUGCUGGACCACAGACUUAUAAAGAACAUUUAGAAGGA	0.457 ratio
GAGGAUGCCCUGUUUAUGUUUGAGUAUUUUAAGCCCAAGACCCUCCCUGAAUUUGAUAGCUACAAGACAAGCACUGUUUCUGCUGACUUGGCAAACCUGUUGAAGAGAAUUGCUACCAUU	0.548 ratio
GCAGCAAGAUCAUGUGCAUAUCAUCCCAUUGUAAAGCAACUUCAAAAAUAUGGGAACAGUUAGUUAUUUUUACACAGUUCUUUUUGUUUGUGUGUGUGUGUGUGUGCUGUCGCUUGUCGA	1.66 ratio
AGAAAACCAAAAUGAUACUUACUGAACUGUGUGUAAUUGUUCCUUUUAUUUUUUUGGUACCUAUUUGACUUACCAUGGAGUUAACAUCAUGAAUUUAUUGCACAUUGUUCAAAAGGAACC	0.203 ratio
CAUCUAUACAAUUUUAAAAAUACUUCCUCAUAGGAUGCUUUGGCCCUUCAUCUAUUUAAUCAUAGCUACAUACCUAUUUUUUAUAAGUAGCAGUACACAUUCAAAGGGGUAUUCCUAGCU	7.76 ratio
AACCUCGGUCGGAAAAGCGAACUGAGUCUAGACUUAGACAGUGAUGUUGUUAGAGAAACAGUGGACUCCCUUAAGCUGUUAGCACAAGGACAUGGUGUUGUGCUAUCAGAGAAUAUCAGU	0.213 ratio
AAAAACCUUCUGCAAUGUGAAUCCUCACUGAAUCAUGCUAAAGAAAUACUCAGAAAUGCAGAGGAAGAGGAAAGCCGGGUACGAGCACAUGCCUGGAAUAUGAAGUUCAAUUUAGCACAU	0.507 ratio
CUACUGAGUAAGGGGCAUUCCUGUUACAGACCAAGGAGAACUGGAGAAAGAAAGAGAAAAUCAGUUCGUGGUUGCAUUGUGGAUGCAAAUCUGAGCGUUCUCAACUUGGUUAUUGUAAAA	0.186 ratio
CAGAGGGUGCAACAGUUACAAGGAGUUUACAACUUGCAAGAACAGCACUUCUGGACACUCUGUUCUGAUGUUUACGUGGGAACCUUGAAGCUCGUGGUAGCCCCUGAUGCUGACGCCAGG	0.106 ratio
UUCAUAGAGAUGAGUGUUGAGCAGGAGAUUCUGGUGACUGGGAUAAAGGUUGUGGAUCUGCUGGCCCCAUACGCCAAGGGUGGGAAAAUCGGACUCUUUGGAGGUGCUGGCGUUGGAAAG	0.503 ratio

Block 4 — method: protein binding microarray; form: double-stranded DNA, one strand shown; sample: in vitro; tested at: not given; relative to: not given; direction: higher = stronger binding
Target: Histone acetyltransferase KAT6A, winged helix 2, GST fusion (KAT6A, Homo sapiens, UniProt Q92794, residues 85-181)
Notes: 8-mer, flanks averaged, mean of 2 arrays, mostly near background
Target sequence (chain): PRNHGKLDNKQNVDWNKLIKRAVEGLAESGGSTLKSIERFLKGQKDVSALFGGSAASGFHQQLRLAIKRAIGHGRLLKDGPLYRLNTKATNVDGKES
Strand	E-score
CGTCTCGA	-0.00789
AAGCGAAC	-0.0139
CCAGAACA	-0.0169
CTGGGGGC	-0.00401
GCCCCAAA	0.0838
GTTAGTCA	-0.0914
CGGTTGAA	-0.051
CAACGCAG	0.117
ACGAACTA	0.0355
GCCTCACA	0.0705
CTATTCTA	0.0274
AGTTGGGG	-0.0144
TCGGACCA	0.068
CTCTAGAC	-0.126
GCTAGCAC	-0.0613
AGGCGAGG	0.217
CAATATCA	-0.0739
AAGTTGGC	-0.0906
AAAAATTT	0.0579

Block 5 — method: RNA Bind-n-Seq; form: RNA; sample: in vitro; tested at: 365 nM; relative to: no-protein control; direction: higher = stronger binding
Target: RNA binding protein fox-1 homolog 2, RRM domain, GST-SBP tag (RBFOX2, Homo sapiens, UniProt O43251-10, residues 100-194)
Notes: natural RNA segment, single round, ends assumed
All sequences stand within: GGGAGUUCUACAGUCCGACGAUC … UGGAAUUCUCGGGUGCCAA
Construct (chain): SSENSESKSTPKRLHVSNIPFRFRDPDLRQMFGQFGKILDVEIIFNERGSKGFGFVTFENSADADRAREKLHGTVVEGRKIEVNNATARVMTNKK
Strand	RBNS enrichment (R)
AGAGGUAGCCUCUGCAAAUGGCAUACCAGAUGGGACUCUAAGAUGCUUGUGUGGUGGCUUCUUGUCCUUCUCUUUGACUUCUGUGGCAUGGUGCUAGUGCAUGUACCCUG	11.4
UGCGUUGUGACAAACAUGCAAUGUGCUGUAAAAAUUCAAUACAGUUUAAAUAAAAUCUCUAUAUUAGGCUGCUUUGUUGGGUCGUUUUAUUUUCAUUUCUAAAAAAACUU	0.89
GGCAGUGCACCUAUUCUGUAGUUGCAGCUAUUGCCUGAAUGUACCUUAGCUGACAAAUUAUUGAUAAUUAAGAACUUGAAUUUGUGAUUCUUACUGCUAAUUAAAACCUA	0.911
CAACCGACAGCAAACAGCUUUCUCCGGCCUCAGGGCAGAAAAAGGGAAUGGCAGGGAGUAAGAGGCGCUGGGCUCGGAGCCUGUUUCCAAGAAGGAAUUGGUUGUCAUCU	0.368
AGAAGAUGCUUGUUUUUAUUAAACAUUUGGAGAUUUAGAUAAUUUACAUUUUAACUGAAUGUCUAAAGUGAUUAUCUUCCCCUCCCUCCCCCAAGUUAAUCUUCCAUCUU	0.584
CAUCAUCUCUUGCUGUGGAAACGGAAACAUAGCAGUUUUCACAUUUCCUGCAUCUCUCAGACAGGACUCACCAUCUCUGCCUCCCAUGAGGCUUACAGAGUUCAAUGUUG	0.254
CCUUUGAGCAGUGCUCUCAAGAGCUCCGUGCCUGUCCACAAUGACCUAGAGUGCAUCCUGCUCAUUGUCAGUGUAGCCCCUCGCCCCUAUAUUCAUCCAGGAUACUUGGA	0.172
CUCUAACAGCAAAAUAAUUAAAGUGCCAUAGUUUCUCAAGUGACUAAAGUAGUUAUUAAAAUCAAGCACUUGAUACUAAUUUGAAGUGUGUUUAAAAGUAAAUGAUUUGG	0.597
CCUGGACCACCAUGGGGAGGAAGAGUCCCACUCAUUACAAAUAAAGAAAGGUGGUGUGAGCCUGGGAGUGGGUGUCUCCAGUUCCAUGUGGCCAAAUCCUAGGGCCUCAA	0.572
ACAAAUAUGUCUGGUGGUGAAUGUGAAAGCUUUCCAUGAGAUGCCAAAGACCCUACAUCGAAUUUCCUUGAAGAAUGGUUCACGGGAUUUCUGUCCCUGAUGAAAGACUG	0.375
GUUGUUUUUUUUUUCAGUUAUUUCUUCAAGGGAAACUAAAUGAUUUAGUUGGAGCAAAGCUUUAAGUGUGUUGGCGUGCUUCUGUGUGGCUGUCCUGUGUCGCCAGGUCG	1.53
ACAGCCGUUCCCCAGGGUCUGAAACUUACCUGUCACGCACAGGUAGAGCAGUGCUAGCUAGCAUUACUGGCUUCCUGCUACUUUUUCGUUUUUUUAAAUUUUUUAUUCUG	0.3
